Measured values from different studies.
Each numbered part is a random draw from the data of one study; scales do not carry over between parts. Substitutions count along the parent as printed.

Set 1
Target: ABI1, truncated, D143A, DHFR fusion (Arabidopsis thaliana)
Method: DHFR PCA, deep sequencing
Medium: yeast
Setting: methotrexate growth selection, single substitutions
With: (+)-ABA 0 µM
Relative to: wild-type fitted maximum
Reading: higher = stronger binding
Endpoint: relative binding score
Starting sequence: PYL1, truncated, DHFR fusion (Arabidopsis thaliana); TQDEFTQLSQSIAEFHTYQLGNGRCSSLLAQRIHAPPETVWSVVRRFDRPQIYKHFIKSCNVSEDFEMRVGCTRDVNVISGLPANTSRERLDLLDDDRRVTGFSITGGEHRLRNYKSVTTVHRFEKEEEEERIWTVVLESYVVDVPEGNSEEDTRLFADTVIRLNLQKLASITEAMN
T17M: 3.01%
T119P: -5.07%
N114P: 3.24%
L164N: -5.28%
S59C: 5.78%
S117W: 3.67%
V136W: -14.5%
D65N: 27.9%
E139M: 5.3%
L91G: -3.77%
E174Q: 5.29%
E14Q: 16%
K116F: -3.27%
S104V: -0.284%
I172A: -2.63%
Q167R: 20.7%
R88M: 9.44%
P36C: 4.03%
C72H: 1.24%
G107K: -0.147%
D48R: -1.78%

Set 2
Target: CCNF, cyclin fold, Cln2 fusion (human)
Method: yeast growth competition, sequencing
Medium: yeast
Setting: strong parent motif
Relative to: not given
Reading: higher = stronger binding
Endpoint: normalised enrichment score
Starting sequence: PKMYT1 docking peptide (human); SFEPRNLLSLFED; partner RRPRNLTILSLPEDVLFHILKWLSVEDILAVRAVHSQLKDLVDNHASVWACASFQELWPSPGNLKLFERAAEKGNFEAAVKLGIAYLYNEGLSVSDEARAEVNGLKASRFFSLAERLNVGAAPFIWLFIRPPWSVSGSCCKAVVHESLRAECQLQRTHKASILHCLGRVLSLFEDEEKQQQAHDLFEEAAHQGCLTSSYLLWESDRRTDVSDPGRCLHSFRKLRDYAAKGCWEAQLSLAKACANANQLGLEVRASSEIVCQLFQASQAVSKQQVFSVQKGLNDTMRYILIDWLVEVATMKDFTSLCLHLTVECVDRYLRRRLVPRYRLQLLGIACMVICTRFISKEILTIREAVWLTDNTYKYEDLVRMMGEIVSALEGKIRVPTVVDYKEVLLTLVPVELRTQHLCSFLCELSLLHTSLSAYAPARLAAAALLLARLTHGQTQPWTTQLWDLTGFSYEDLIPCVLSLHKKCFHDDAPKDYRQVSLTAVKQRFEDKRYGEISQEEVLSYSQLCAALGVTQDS
SFENRNLLSLFED [P4N]: -0.693
SLEPRNLLSLFED [F2L]: 1.21
SFEPHNLLSLFED [R5H]: -1.43
SFEPRNLLSDFED [L10D]: 0.648
SFEPRNLLWLFED [S9W]: 1.49
SFEPRMLLSLFED [N6M]: -0.634
SFMPRNLLSLFED [E3M]: 2.36
SFEPRNLLSIFED [L10I]: 0.448
KFEPRNLLSLFED [S1K]: 1.22
SFELRNLLSLFED [P4L]: -0.79
SFEPRNLESLFED [L8E]: -3.4
SFEPRNLLSRFED [L10R]: 0.643
SFEPRNLNSLFED [L8N]: 1.11
SFEPRNLVSLFED [L8V]: -1.12
SFEPRNLLQLFED [S9Q]: 1.33
SFEPRNLLSHFED [L10H]: -0.161
SFEPRNLYSLFED [L8Y]: 0.486
SFEPRNNLSLFED [L7N]: -0.628
SFETRNLLSLFED [P4T]: -0.321
SFPPRNLLSLFED [E3P]: 0.589
SFEPRNLLMLFED [S9M]: 1.42

Set 3
Target: Interferon regulatory factor 7, full length, phosphomimetic (IRF7, Homo sapiens, UniProt Q92985, residues 1-503, S101K/S471D/S472D/S475D/S476D/S477D/S483D/S484D/S487D)
Sequence of UniProt Q92985 (whole entry, unmodified, looked up): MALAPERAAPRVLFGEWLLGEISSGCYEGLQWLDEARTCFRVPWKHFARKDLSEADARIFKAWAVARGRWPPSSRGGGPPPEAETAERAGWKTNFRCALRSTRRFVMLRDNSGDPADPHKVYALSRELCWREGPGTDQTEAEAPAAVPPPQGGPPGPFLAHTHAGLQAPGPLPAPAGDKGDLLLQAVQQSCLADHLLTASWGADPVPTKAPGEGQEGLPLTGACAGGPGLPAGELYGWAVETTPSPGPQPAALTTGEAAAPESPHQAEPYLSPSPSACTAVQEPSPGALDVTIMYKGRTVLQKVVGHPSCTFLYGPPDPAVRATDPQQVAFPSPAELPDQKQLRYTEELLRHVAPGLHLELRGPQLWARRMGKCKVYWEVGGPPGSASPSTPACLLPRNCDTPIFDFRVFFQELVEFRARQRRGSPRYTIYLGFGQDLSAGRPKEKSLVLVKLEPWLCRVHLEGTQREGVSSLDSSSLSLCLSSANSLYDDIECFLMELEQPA
Method: protein-binding microarray
Molecule type: double-stranded DNA, one strand shown
Medium: in vitro
Concentration: 250 nM
Setting: 60-bp whole probe
With: salmon DNA 0.4 mg/ml
Relative to: random background probes
Reading: higher = stronger binding
Endpoint: log fluorescence
Shared flanks, not repeated: GCCTAGCAC … GTCTTGATTCGCTTGACGCTGCTG
TTAGGTTTCGACTATCGGTTTGTGCTA: 5.56 z-score
TCAGGTATCCTTATCCTTTAGTGCTAG: 0.459 z-score
TGCTTTCCAATTCTCTTTTCGTGCTAG: 3.75 z-score
GAAGGTATCGGGTTTCGGGACGTGCTA: 3.3 z-score
TTAGGTTTCGGGACTGGGTTCGTGCTA: 3.35 z-score
TTAGAACTGGGGAGTGGATTAGTGCTA: -0.527 z-score
TTAGGTATCGGCTTTCGGTTAGTGCTA: 1.19 z-score
TTAGGACTGCTTCCCCTTTAGTGCTAG: 0.581 z-score
GTCTGTTTGGGTCTTGTCTGGTGCTAG: 0.188 z-score
TTTTTTTTTTTTTTTTGTATGTGCTAG: 0.659 z-score
TGGGGCTGTATCATCTGAAGGTGCTAG: -0.921 z-score
TCACCACTCATGCCTCTTACTGTGCTA: -0.412 z-score
TCATGTACATCTCTCTTACTGTGCTAG: 0.176 z-score
GACGGACTGGGACTGGGGATGTGCTAG: -0.403 z-score
TCATATCTGGGTTCCCCACTGTGCTAG: 0.54 z-score
GACGGTTGCCTACTGCTGACGTGCTAG: -0.6 z-score
GACGATATCGGGTATAGAGACGTGCTA: -0.327 z-score
TTAGGTATCGACCCTGGGTTAGTGCTA: 0.042 z-score
GACGGTATCGATATCGGGACGTGCTAG: 1.72 z-score
TCCATTTTCTAAATGCCCTGGTGCTAG: 1.76 z-score
TTAGGTTTCGGTATCTGTTAGTGCTAG: 10.5 z-score
TATTTTTTTGTAATCGAAATGTGCTAG: 1.07 z-score

Set 4
Target: Cyclic AMP-responsive element-binding protein 1, full length (CREB1, Homo sapiens, UniProt P16220, residues 1-327)
Sequence of UniProt P16220 (whole entry, looked up): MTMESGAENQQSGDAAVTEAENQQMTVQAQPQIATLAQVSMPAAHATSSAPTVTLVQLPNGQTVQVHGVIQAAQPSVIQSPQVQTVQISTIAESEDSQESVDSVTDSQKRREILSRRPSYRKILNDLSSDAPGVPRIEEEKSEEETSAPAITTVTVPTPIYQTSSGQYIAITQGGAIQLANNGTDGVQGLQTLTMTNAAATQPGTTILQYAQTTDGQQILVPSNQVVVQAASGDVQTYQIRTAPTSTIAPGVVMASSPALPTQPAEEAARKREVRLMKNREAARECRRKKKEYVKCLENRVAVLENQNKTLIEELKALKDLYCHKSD
Method: protein-binding microarray
Molecule type: hairpin DNA
Medium: in vitro
Concentration: not given
Setting: whole hairpin DNA, median over replicate spots
Relative to: not given
Reading: higher = stronger binding
Endpoint: median fluorescence
GAGGCCCGATGACGTCAGCCTCCTGGCTGACGTCATCGGGCCTCACACTC: 26000 a.u.
GAGGCCGGATCGCGTCAGCCTCCTGGCTGACGCGATCCGGCCTCACACTC: 3900 a.u.
GAGGCCGACGAGGTCGTGCCTCCTGGCACGACCTCGTCGGCCTCACACTC (5mC at 9 15 29 35): 2690 a.u.
GAGGCCGCCGACGTCGTGCCTCCTGGCACGACGTCGGCGGCCTCACACTC (5mC at 9 15 29 35): 3900 a.u.
GAGGCCGGATCGCGTCAGCCTCCTGGCTGACGCGATCCGGCCTCACACTC (5mC at 11 33): 5120 a.u.
GAGGCCGACGACTTCGTGCCTCCTGGCACGAAGTCGTCGGCCTCACACTC (5mC at 9 15 29 35): 2580 a.u.
GAGGCCGGCTGACGCGAGCCTCCTGGCTCGCGTCAGCCGGCCTCACACTC (5mC at 29): 3630 a.u.
GAGGCCGGATGACTTCAGCCTCCTGGCTGAAGTCATCCGGCCTCACACTC: 2860 a.u.
GAGGCCGACGACGTTGTGCCTCCTGGCACAACGTCGTCGGCCTCACACTC (5mC at 9 29 35): 4800 a.u.
GAGGCCGGATGACGTCAGCCTCCTGGCTGACGTCATCCGGCCTCACACTC (5mC at 37): 22100 a.u.
GAGGCCGCCGACGTCGTGCCTCCTGGCACGACGTCGGCGGCCTCACACTC (5mC at 8 9 15 29 35): 4300 a.u.
GAGGCCGGCTGACGTCAGCCTCCTGGCTGACGTCAGCCGGCCTCACACTC (5mC at 16): 6680 a.u.
GAGGCCGGCTGCGGTCAGCCTCCTGGCTGACCGCAGCCGGCCTCACACTC (5mC at 12 32): 2620 a.u.
GAGGCCGGATGACGTCGGCCTCCTGGCCGACGTCATCCGGCCTCACACTC (5mC at 16): 7190 a.u.
GAGGCCGGCTGACGCCAGCCTCCTGGCTGGCGTCAGCCGGCCTCACACTC (5mC at 15): 6930 a.u.
GAGGCCGGATGGCGTCAGCCTCCTGGCTGACGCCATCCGGCCTCACACTC (5mC at 33): 15000 a.u.
GAGGCCGACGATGTCGTGCCTCCTGGCACGACATCGTCGGCCTCACACTC (5mC at 9 15 29 35): 2800 a.u.
GAGGCCGACGGCGTCGTGCCTCCTGGCACGACGCCGTCGGCCTCACACTC (5mC at 9 15 29 35): 3130 a.u.
GAGGCCGGCTGACGTCCGCCTCCTGGCGGACGTCAGCCGGCCTCACACTC (5mC at 17): 4280 a.u.
GAGGCCGACGACGCGGTGCCTCCTGGCACCGCGTCGTCGGCCTCACACTC (5mC at 9 29 30 35): 3530 a.u.
GAGGCCGGCTGCGGTCAGCCTCCTGGCTGACCGCAGCCGGCCTCACACTC: 2770 a.u.
GAGGCCCGCTGACGTCAGCCTCCTGGCTGACGTCAGCGGGCCTCACACTC (5mC at 7 37): 13300 a.u.
GAGGCCTGATGACGTCAGCCTCCTGGCTGACGTCATCAGGCCTCACACTC: 27600 a.u.
GAGGCCGACGCGGTCGTGCCTCCTGGCACGACCGCGTCGGCCTCACACTC (5mC at 9 15 29 35): 2980 a.u.
GAGGCCGACGACGTGGTGCCTCCTGGCACCACGTCGTCGGCCTCACACTC (5mC at 9 29 35): 5200 a.u.

Set 5
Target: CREM, bZIP domain (human)
Method: DHFR protein complementation
Medium: yeast
Setting: single substitutions, most at no-binding floor
Relative to: wild-type JUN-FOS pair
Reading: higher = stronger binding
Endpoint: binding fitness
Starting sequence: JUN, bZIP domain (human); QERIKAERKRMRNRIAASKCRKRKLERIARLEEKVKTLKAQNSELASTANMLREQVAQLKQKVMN; partner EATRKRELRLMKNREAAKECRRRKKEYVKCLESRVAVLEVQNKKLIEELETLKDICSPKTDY
L31I: -1.55 natural log
E32L: -1.48 natural log
Q41W: -1.5 natural log
R30S: -1.41 natural log
R30Y: -1.23 natural log
K34V: -1.28 natural log
L45R: -1.55 natural log
N42L: -1.5 natural log
N42P: -1.51 natural log
R53S: -1.54 natural log
E44Y: -1.57 natural log
E32D: -1.53 natural log
N42Y: -1.45 natural log
K34R: -1.25 natural log
E44K: -1.37 natural log
S47M: -1.41 natural log
L45N: -1.52 natural log
E54N: -1.49 natural log
K39N: -1.47 natural log
A46F: -1.63 natural log

For quick reference, copied from above (set 4):
GAGGCCGACGAGGTCGTGCCTCCTGGCACGACCTCGTCGGCCTCACACTC (5mC at 9 15 29 35): 2690 a.u.
GAGGCCGCCGACGTCGTGCCTCCTGGCACGACGTCGGCGGCCTCACACTC (5mC at 9 15 29 35): 3900 a.u.
GAGGCCGGATCGCGTCAGCCTCCTGGCTGACGCGATCCGGCCTCACACTC (5mC at 11 33): 5120 a.u.
GAGGCCGACGACTTCGTGCCTCCTGGCACGAAGTCGTCGGCCTCACACTC (5mC at 9 15 29 35): 2580 a.u.
GAGGCCGGCTGACGCGAGCCTCCTGGCTCGCGTCAGCCGGCCTCACACTC (5mC at 29): 3630 a.u.
GAGGCCGGATGACTTCAGCCTCCTGGCTGAAGTCATCCGGCCTCACACTC: 2860 a.u.
GAGGCCGACGACGTTGTGCCTCCTGGCACAACGTCGTCGGCCTCACACTC (5mC at 9 29 35): 4800 a.u.
GAGGCCGGATGACGTCAGCCTCCTGGCTGACGTCATCCGGCCTCACACTC (5mC at 37): 22100 a.u.
GAGGCCGCCGACGTCGTGCCTCCTGGCACGACGTCGGCGGCCTCACACTC (5mC at 8 9 15 29 35): 4300 a.u.
GAGGCCGGCTGACGTCAGCCTCCTGGCTGACGTCAGCCGGCCTCACACTC (5mC at 16): 6680 a.u.
GAGGCCGGCTGCGGTCAGCCTCCTGGCTGACCGCAGCCGGCCTCACACTC (5mC at 12 32): 2620 a.u.
GAGGCCGGATGACGTCGGCCTCCTGGCCGACGTCATCCGGCCTCACACTC (5mC at 16): 7190 a.u.
GAGGCCGGCTGACGCCAGCCTCCTGGCTGGCGTCAGCCGGCCTCACACTC (5mC at 15): 6930 a.u.
GAGGCCGGATGGCGTCAGCCTCCTGGCTGACGCCATCCGGCCTCACACTC (5mC at 33): 15000 a.u.
GAGGCCGACGATGTCGTGCCTCCTGGCACGACATCGTCGGCCTCACACTC (5mC at 9 15 29 35): 2800 a.u.
GAGGCCGACGGCGTCGTGCCTCCTGGCACGACGCCGTCGGCCTCACACTC (5mC at 9 15 29 35): 3130 a.u.
GAGGCCGGCTGACGTCCGCCTCCTGGCGGACGTCAGCCGGCCTCACACTC (5mC at 17): 4280 a.u.
GAGGCCGACGACGCGGTGCCTCCTGGCACCGCGTCGTCGGCCTCACACTC (5mC at 9 29 30 35): 3530 a.u.
